Measured values collected from several papers.
Compare with care: the assays were run in different laboratories. Numbers after ± are the reported error.
TRPM channel TRPM_PZQ: TRPM channel TRPM_PZQ (Fasciola hepatica, UniProt A0A4E0RBW4)
Sequence of UniProt P35462 (whole entry, looked up): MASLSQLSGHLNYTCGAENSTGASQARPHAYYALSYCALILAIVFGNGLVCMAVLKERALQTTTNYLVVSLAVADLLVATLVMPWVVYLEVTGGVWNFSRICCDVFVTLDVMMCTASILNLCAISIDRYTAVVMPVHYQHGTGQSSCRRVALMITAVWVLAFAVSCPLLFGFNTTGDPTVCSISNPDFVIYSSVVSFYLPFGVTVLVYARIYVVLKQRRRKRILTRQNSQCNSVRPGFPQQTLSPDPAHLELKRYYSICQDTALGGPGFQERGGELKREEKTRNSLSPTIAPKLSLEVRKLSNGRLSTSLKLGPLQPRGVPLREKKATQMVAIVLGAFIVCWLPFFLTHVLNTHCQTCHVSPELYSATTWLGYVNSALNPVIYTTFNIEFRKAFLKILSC
Sequence of UniProt Q16819 (whole entry, looked up): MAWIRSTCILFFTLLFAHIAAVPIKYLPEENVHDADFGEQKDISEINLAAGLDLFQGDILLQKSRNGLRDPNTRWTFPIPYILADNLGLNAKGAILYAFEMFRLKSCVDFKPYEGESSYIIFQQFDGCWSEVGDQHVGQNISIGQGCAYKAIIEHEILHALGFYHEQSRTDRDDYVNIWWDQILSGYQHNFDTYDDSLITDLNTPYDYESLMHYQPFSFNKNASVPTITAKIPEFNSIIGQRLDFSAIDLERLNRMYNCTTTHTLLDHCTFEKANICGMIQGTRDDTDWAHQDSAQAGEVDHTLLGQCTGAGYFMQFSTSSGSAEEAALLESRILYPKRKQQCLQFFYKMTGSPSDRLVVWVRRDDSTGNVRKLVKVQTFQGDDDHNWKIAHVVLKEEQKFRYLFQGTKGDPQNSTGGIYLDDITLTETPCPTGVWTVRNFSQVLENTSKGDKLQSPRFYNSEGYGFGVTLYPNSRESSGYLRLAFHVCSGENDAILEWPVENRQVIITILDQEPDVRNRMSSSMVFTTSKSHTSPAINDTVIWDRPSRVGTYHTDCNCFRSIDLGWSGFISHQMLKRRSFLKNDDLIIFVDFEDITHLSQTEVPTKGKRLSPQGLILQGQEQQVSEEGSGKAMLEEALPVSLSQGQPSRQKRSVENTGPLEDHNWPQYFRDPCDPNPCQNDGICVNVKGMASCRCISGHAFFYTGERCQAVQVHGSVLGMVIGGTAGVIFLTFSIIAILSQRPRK
Sequence of UniProt P05413 (whole entry, looked up): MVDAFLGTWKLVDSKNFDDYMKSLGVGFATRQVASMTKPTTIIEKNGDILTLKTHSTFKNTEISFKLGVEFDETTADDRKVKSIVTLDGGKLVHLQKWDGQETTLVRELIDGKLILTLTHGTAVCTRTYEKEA
Sequence of UniProt P13569 (whole entry, looked up): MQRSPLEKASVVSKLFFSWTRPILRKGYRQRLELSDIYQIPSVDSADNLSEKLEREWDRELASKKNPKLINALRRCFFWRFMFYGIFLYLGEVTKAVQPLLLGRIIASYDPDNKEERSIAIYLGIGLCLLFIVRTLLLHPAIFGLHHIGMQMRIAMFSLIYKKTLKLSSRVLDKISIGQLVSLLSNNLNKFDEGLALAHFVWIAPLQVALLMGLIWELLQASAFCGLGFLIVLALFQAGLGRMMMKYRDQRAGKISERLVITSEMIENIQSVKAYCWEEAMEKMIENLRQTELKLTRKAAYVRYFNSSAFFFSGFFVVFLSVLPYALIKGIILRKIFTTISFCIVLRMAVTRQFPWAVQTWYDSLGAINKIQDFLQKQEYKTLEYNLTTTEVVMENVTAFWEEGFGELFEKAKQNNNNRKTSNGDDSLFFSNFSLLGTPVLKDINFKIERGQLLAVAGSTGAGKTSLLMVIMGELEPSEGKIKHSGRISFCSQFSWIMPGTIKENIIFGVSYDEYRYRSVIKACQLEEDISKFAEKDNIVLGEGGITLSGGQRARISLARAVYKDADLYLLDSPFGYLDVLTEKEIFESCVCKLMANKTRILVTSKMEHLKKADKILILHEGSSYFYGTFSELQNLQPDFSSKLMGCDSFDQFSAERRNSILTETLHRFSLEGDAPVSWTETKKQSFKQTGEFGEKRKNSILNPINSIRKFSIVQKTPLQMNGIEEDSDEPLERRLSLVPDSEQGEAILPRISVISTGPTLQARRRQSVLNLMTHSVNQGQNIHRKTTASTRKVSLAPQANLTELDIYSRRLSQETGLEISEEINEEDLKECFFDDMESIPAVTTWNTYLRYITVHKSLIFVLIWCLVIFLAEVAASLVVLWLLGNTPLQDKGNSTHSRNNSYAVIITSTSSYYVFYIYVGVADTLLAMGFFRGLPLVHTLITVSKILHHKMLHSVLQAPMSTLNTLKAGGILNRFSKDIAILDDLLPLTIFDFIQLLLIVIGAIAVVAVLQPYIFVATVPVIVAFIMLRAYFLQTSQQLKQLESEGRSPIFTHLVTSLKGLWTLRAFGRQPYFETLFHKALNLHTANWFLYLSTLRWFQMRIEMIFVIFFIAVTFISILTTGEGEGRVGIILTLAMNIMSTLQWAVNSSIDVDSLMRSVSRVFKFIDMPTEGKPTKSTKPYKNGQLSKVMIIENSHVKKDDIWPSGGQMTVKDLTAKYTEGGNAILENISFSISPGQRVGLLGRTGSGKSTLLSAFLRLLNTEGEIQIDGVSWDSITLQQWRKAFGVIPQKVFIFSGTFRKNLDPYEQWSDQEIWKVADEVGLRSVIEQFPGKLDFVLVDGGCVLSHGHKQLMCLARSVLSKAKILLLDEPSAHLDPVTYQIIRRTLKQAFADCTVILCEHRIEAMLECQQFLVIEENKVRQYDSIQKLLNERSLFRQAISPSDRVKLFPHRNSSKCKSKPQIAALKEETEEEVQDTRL
Sequence of UniProt P06401 (whole entry, looked up): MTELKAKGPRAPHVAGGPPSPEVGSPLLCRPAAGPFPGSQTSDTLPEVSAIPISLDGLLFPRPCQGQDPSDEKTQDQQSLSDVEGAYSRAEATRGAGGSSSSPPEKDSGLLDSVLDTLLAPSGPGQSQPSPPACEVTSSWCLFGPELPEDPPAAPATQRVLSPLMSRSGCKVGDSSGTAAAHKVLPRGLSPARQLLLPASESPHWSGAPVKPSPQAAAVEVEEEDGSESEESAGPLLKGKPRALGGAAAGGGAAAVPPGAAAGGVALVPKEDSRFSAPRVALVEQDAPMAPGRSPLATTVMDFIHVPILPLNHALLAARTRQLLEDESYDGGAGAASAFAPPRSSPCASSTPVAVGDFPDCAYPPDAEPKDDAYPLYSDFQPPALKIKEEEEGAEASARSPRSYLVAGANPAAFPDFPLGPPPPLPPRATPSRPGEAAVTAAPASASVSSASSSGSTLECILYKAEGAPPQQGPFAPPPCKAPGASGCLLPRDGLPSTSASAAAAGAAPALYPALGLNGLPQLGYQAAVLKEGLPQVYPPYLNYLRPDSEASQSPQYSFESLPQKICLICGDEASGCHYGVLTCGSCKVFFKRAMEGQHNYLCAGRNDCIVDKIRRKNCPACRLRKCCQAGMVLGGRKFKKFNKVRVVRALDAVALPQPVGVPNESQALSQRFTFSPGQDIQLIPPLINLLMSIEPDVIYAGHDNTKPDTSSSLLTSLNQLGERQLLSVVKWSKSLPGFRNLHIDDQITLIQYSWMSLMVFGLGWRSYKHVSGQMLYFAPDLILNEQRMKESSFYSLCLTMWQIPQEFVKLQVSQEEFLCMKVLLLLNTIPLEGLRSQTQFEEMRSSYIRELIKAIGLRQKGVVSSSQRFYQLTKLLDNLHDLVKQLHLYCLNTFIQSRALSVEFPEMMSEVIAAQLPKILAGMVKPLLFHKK
Sequence of UniProt P48546 (whole entry, looked up): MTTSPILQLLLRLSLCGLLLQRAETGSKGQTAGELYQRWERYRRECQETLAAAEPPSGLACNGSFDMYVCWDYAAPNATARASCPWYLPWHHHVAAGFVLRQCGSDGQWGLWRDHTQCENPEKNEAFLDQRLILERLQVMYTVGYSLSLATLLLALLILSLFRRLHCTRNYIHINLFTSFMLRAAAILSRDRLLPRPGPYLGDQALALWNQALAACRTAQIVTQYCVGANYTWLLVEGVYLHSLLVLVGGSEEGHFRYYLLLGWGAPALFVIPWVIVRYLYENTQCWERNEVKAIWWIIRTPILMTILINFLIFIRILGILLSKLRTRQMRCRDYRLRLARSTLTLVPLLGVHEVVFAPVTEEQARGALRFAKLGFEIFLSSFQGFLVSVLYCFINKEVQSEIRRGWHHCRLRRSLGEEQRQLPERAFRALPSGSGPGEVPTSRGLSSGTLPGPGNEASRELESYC
Sequence of UniProt P28072 (whole entry, looked up): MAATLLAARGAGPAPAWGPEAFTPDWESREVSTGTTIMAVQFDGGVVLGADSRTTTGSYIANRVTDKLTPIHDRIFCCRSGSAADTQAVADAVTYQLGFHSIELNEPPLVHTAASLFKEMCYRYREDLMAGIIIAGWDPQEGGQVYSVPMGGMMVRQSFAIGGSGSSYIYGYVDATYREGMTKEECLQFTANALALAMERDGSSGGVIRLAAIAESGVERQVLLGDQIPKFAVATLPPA

SMILES = C[C@@H](COc1ccc(F)cc1)C(=O)n1nc(N)c2ccc(CO)cc21; tested on = CFTR (Homo sapiens, UniProt P13569); test = ion current, potentiator, inside-out patch clamp; setting = fully phosphorylated, with: 3 mM ATP; quantity = EC50; result = 64 ± 25 nM
SMILES = O=C(Cc1c(-c2ccccc2)n[nH]c1-c1ccccc1)NO; tested on = MEP1A (Homo sapiens, UniProt Q16819); test = enzyme activity, inhibitor; quantity = Ki; result = 1 nM
SMILES = OC1(c2ccc(Cl)cc2)CCN(Cc2c[nH]c3ccccc23)CC1; tested on = DRD3 (Homo sapiens, UniProt P35462); quantity = Ki; result = 54.1 ± 13 nM
SMILES = CN[C@](C)(C[18F])C(=O)O; tested on = DU-145 tumour model; test system = host not given, liver; setting = 15 min, tumour-bearing; quantity = tracer uptake; result = 6.2 %ID/g
SMILES = C=C(NC(=O)C(=C)NC(=O)c1csc(C2=NC3c4csc(n4)C4NC(=O)c5csc(n5)C(C(C)(O)C(C)O)NC(=O)C5CSC(=N5)C(=CC)NC(=O)C(C(C)O)NC(=O)c5csc(n5)C3(CC2)NC(=O)C(C)NC(=O)C(=C)NC(=O)C(Cc2ccc(O)cc2)NC(=O)C(C(C)CC)NC2C=Cc3c(C(C)O)cc(nc3C2O)C(=O)OC4C)n1)C(N)=O (stereo not shown); tested on = PSMB6 (Homo sapiens, UniProt P28072); test = caspase-like activity, inhibitor; test system = purified human 20S proteasome; setting = 37 °C, 15 min preincubation, with: Ac-Nle-Pro-Nle-Asp-AMC; quantity = IC50; result = 580 ± 90 nM
SMILES = O=C(Nn1c(-c2cccc(Cl)c2)nc2ccccc2c1=O)c1ccccc1; tested on = TRPM channel TRPM_PZQ; quantity = EC50; result = 1080 ± 60 nM
SMILES = C[C@]12C[C@H](c3ccc(S(C)(=O)=O)cc3)C3=C4CC[C@@H](O)C=C4CC[C@H]3[C@@H]1CC[C@@]2(O)C(F)(F)C(F)(F)F; tested on = PGR (Homo sapiens, UniProt P06401); test = reporter gene, antagonist, luciferase; quantity = IC50; result = 5.3 nM
SMILES = CC[C@H](C)[C@H](NC(=O)[C@H](CO)NC(=O)[C@H](Cc1ccc(O)cc1)NC(=O)[C@H](CC(=O)O)NC(=O)[C@H](CO)NC(=O)[C@@H](NC(=O)[C@H](Cc1ccccc1)NC(=O)[C@@H](NC(=O)CNC(=O)[C@@H](N)CCC(=O)O)[C@@H](C)O)[C@@H](C)CC)C(=O)N[C@@H](C)C(=O)N[C@@H](CCSC)C(=O)N[C@@H](CC(=O)O)C(=O)N[C@@H](CCCCN)C(=O)N[C@H](C(=O)N[C@@H](Cc1c[nH]cn1)C(=O)N[C@@H](CCC(N)=O)C(=O)N[C@@H](CCC(N)=O)C(=O)N[C@@H](CC(=O)O)C(=O)N[C@@H](Cc1ccccc1)C(=O)N[C@H](C(=O)N[C@@H](CC(N)=O)C(=O)N[C@@H](Cc1c[nH]c2ccccc12)C(=O)N[C@@H](CC(C)C)C(=O)N[C@@H](CC(C)C)C(=O)N[C@@H](C)C(=O)N[C@@H](CCC(N)=O)C(=O)N[C@@H](CCCCN)C(N)=O)C(C)C)[C@@H](C)CC; tested on = GIPR (Homo sapiens, UniProt P48546); test = cAMP accumulation, antagonist; test system = COS-7 transfected; setting = 10 min preincubation, with: GIP(1-42) at 50 to 80% Emax; quantity = IC50; result = 11.7 nM
SMILES = O=C(Nn1c(-c2cccc(Cl)c2)nc2ccccc2c1=O)c1ccccc1F; tested on = TRPM channel TRPM_PZQ; quantity = EC50; result = 3000 ± 570 nM
SMILES = O=C(O)CCCOc1ccc(F)cc1-c1cc(-c2ccccc2C(F)(F)F)n(-c2ccccc2)n1; tested on = Fatty acid-binding protein, heart (Homo sapiens, UniProt P05413); test = binding; quantity = Kd; result = 24 ± 7 nM

For quick reference, copied from above:
SMILES = C[C@]12C[C@H](c3ccc(S(C)(=O)=O)cc3)C3=C4CC[C@@H](O)C=C4CC[C@H]3[C@@H]1CC[C@@]2(O)C(F)(F)C(F)(F)F; tested on = PGR (Homo sapiens, UniProt P06401); test = reporter gene, antagonist, luciferase; quantity = IC50; result = 5.3 nM
SMILES = OC1(c2ccc(Cl)cc2)CCN(Cc2c[nH]c3ccccc23)CC1; tested on = DRD3 (Homo sapiens, UniProt P35462); quantity = Ki; result = 54.1 ± 13 nM
